Measured values gathered from unrelated publications.
Lines come from different studies, so protocols differ. ± marks the error that the study gave.
Cell line: HT-29

| Structure (SMILES) | assay | conditions | IC50 |
| --- | --- | --- | --- |
| CCCC(=O)Oc1c(C)c(OC)c2c(/C=C/c3ccccc3)c(CC)c(=O)oc2c1C | cell growth or viability, SRB | 72 h | 30.9 µM |
| Clc1cc(Br)c2c(c1)CCc1cccnc1C2=C1CCNCC1 | cell growth or viability, SRB | – | < 15 µM |
| N#Cc1c(F)c(Cl)c2nc(SCc3ccc4ccccc4c3)nc(N)c2c1F | cell growth or viability, MTT | 96 h | 6.54 µM |
| CO[C@@H]1[C@@H](O[C@@H]2O[C@H](C)[C@@H](O[C@H]3C[C@@](C)(O)[C@@H](OC(=O)c4ccc(C(C)(C)C)cc4)[C@H](C)O3)[C@H](N(C)C)[C@H]2O)[C@@H](CC=O)C[C@@H](C)[C@@H](O[C@H]2CC[C@H](N(C)C)[C@@H](C)O2)/C=C/C=C/C[C@@H](C)OC(=O)C[C@H]1O | cell growth or viability, CCK-8 | 72 h | 0.91 µM |
| NS(=O)(=O)c1ccc(NC(=O)NN[C@@H]2O[C@H](CO)[C@@H](O)[C@H]2O)cc1 | cell growth or viability, MTT | 96 h | 81 µM |
| O=C(CSc1nc(-c2ccccc2)n[nH]1)N1CCC(=C2c3ncccc3CCc3cc(Cl)cc(Br)c32)CC1 | cell growth or viability, SRB | – | 80 µM |
| Cc1cnc(NC2CCOCC2)nc1-n1cnc(C(=O)NC(CN)c2cc(F)cc(Cl)c2)c1 (centres unmarked) | RSK1 Ser380 phosphorylation, ELISA | 2 h | 0.007 µM |
| CO[C@@H]1[C@@H](O[C@@H]2O[C@H](C)[C@@H](O[C@H]3C[C@@](C)(O)[C@@H](OC(=O)CN(C)C)[C@H](C)O3)[C@H](N(C)C)[C@H]2O)[C@@H](CC=O)C[C@@H](C)[C@@H](O[C@H]2CC[C@H](N(C)C)[C@@H](C)O2)/C=C/C=C/C[C@@H](C)OC(=O)C[C@H]1O | cell growth or viability, CCK-8 | 72 h | > 50 µM |
| NS(=O)(=O)c1ccc(NC(=O)NN[C@@H]2O[C@H](CO)[C@@H](O)[C@H](O)[C@H]2O)cc1 | cell growth or viability, MTT | 96 h | 92 µM |
| O=C1c2ccccc2C2C(=O)c3ccccc3OC12 (centres unmarked) | cell growth or viability, resazurin | 96 h | 4.07 µg/mL |
| NS(=O)(=O)c1ccc(NC(=O)NN[C@@H]2OC[C@H](O)[C@H](O)[C@H]2O)cc1 | cell growth or viability, MTT | 96 h | 90 µM |
| O=C(C[c-]1cccc1)Oc1ccc(-n2cccc2)cc1.[Fe+2].c1cc[cH-]c1 | cell growth or viability, MTT | – | 283 µM |
| Nn1c(SCC(=O)N2CCC(=C3c4ncccc4CCc4cc(Cl)cc(Br)c43)CC2)nnc1-c1ccccc1 | cell growth or viability, SRB | – | < 15 µM |
| N#Cc1c(F)c(Cl)c2nc(SCc3ccccc3)nc(N)c2c1F | cell growth or viability, MTT | 96 h | 35.5 µM |
| CN1CCC(S(=O)(=O)NC23CCCC(C)(CCC4C2CC4(C)C)C3)CC1 (centres unmarked) | cell growth or viability, CCK-8 | 72 h | 7.3 µM |
| CCCCCCCCCCCCCCCC(=O)O[C@H]1[C@H](C)O[C@@H](O[C@H]2[C@H](N(C)C)[C@@H](O)[C@H](O[C@H]3[C@@H](CC=O)C[C@@H](C)[C@@H](O[C@H]4CC[C@H](N(C)C)[C@@H](C)O4)/C=C/C=C/C[C@@H](C)OC(=O)C[C@@H](O)[C@@H]3OC)O[C@@H]2C)C[C@@]1(C)O | cell growth or viability, CCK-8 | 72 h | 3.94 µM |
| COCCOCCSc1nc(N)c2c(F)c(C#N)c(F)c(F)c2n1 | cell growth or viability, MTT | 96 h | 4.93 µM |
| Cn1c(SCC(=O)N2CCC(=C3c4ncccc4CCc4cc(Cl)cc(Br)c43)CC2)nnc1-c1ccccc1 | cell growth or viability, SRB | – | 65 µM |
| CN(C)CCCO/N=C1/C=C2CCC3C(CC[C@]4(C)/C(=C/c5ccccn5)CCC34)[C@@]2(C)CC1 (some centres unmarked) | cell growth or viability, MTT | 72 h | > 100 µM |
| CO[C@@H]1[C@@H](O[C@@H]2O[C@H](C)[C@@H](O[C@H]3C[C@@](C)(O)[C@@H](OC(=O)Nc4ccc(C(F)(F)F)cc4)[C@H](C)O3)[C@H](N(C)C)[C@H]2O)[C@@H](CC=O)C[C@@H](C)[C@@H](O[C@H]2CC[C@H](N(C)C)[C@@H](C)O2)/C=C/C=C/C[C@@H](C)OC(=O)C[C@H]1O | cell growth or viability, CCK-8 | 72 h | 3.2 µM |
| CCCCCCCCSc1nc(N)c2c(F)c(C#N)c(F)c(F)c2n1 | cell growth or viability, MTT | 96 h | > 100 µM |
| CC12CCCC(n3cc(C(=O)N4CC(N)C4)nn3)(C1)C1CC(C)(C)C1CC2 (centres unmarked) | cell growth or viability, CCK-8 | 72 h | 7.11 µM |
| COCCOCCSc1nc(N)c2c(F)c(C#N)c(F)c(Cl)c2n1 | cell growth or viability, MTT | 96 h | 6.35 µM |
| C[C@]12CC/C(=N\O)C=C1CCC1C2CC[C@]2(C)/C(=C/c3ccccn3)CCC12 (some centres unmarked) | cell growth or viability, MTT | 72 h | 4.4 µM |

| Structure (SMILES) | assay | conditions | IC50 |
| --- | --- | --- | --- |
| COc1ccccc1/C=C1\SC(=O)N(CC(=O)Nc2ccc(C(=O)Nc3ccc([N+](=O)[O-])cc3)cc2)C1=O | cell growth or viability, MTT | – | 47.2 µM |
| CC12CCCC(NS(=O)(=O)C3CCN(Cc4ccccc4)C3)(C1)C1CC(C)(C)C1CC2 (centres unmarked) | cell growth or viability, CCK-8 | 72 h | 16.4 µM |
| CO[C@@H]1[C@@H](O[C@@H]2O[C@H](C)[C@@H](O[C@H]3C[C@@](C)(O)[C@@H](OC(=O)CC(C)C)[C@H](C)O3)[C@H](N(C)C)[C@H]2O)[C@@H](CC=O)C[C@@H](C)[C@@H](O[C@H]2CC[C@H](N(C)C)[C@@H](C)O2)/C=C/C=C/C[C@@H](C)OC(=O)C[C@H]1O | cell growth or viability, CCK-8 | 72 h | 13.2 µM |
| CCCCCCCCSc1nc(N)c2c(F)c(C#N)c(F)c(Cl)c2n1 | cell growth or viability, MTT | 96 h | > 100 µM |
| COc1ccc(CN2C(=O)C(=O)c3cc(NC(C)=O)ccc32)cc1 | cell growth or viability, MTT | 48 h | 34.4 µM |
| CO[C@@H]1[C@@H](O[C@@H]2O[C@H](C)[C@@H](O[C@H]3C[C@@](C)(O)[C@@H](OC(=O)C4CCCCC4)[C@H](C)O3)[C@H](N(C)C)[C@H]2O)[C@@H](CC=O)C[C@@H](C)[C@@H](O[C@H]2CC[C@H](N(C)C)[C@@H](C)O2)/C=C/C=C/C[C@@H](C)OC(=O)C[C@H]1O | cell growth or viability, CCK-8 | 72 h | 5.01 µM |
| N#Cc1c(F)c(Cl)c2nc(SCC3CCCO3)nc(N)c2c1F (centres unmarked) | cell growth or viability, MTT | 96 h | 6.87 µM |
| CC1CNCCN1C(=O)c1cn(C23CCCC(C)(CCC4C2CC4(C)C)C3)nn1 (centres unmarked) | cell growth or viability, CCK-8 | 72 h | 4.08 µM |
| C=C1CC(OC(=O)C(C)(O)CCl)C2C(=C)C(=O)OC2C2C1CC(O)C2(O)CCl (centres unmarked) | cell growth or viability | – | 0.04 µg/mL |
| O=C(CN1C(=O)S/C(=C\c2ccccc2Br)C1=O)Nc1ccc(C(=O)Nc2ccc(F)cc2)cc1 | cell growth or viability, MTT | – | 22.3 µM |
| O=C(/C=C(O)/C=C/c1cccs1)/C=C/c1cccs1 | cell growth or viability, MTT | 72 h | > 75 µM |
| COc1c(C)c(OS(=O)(=O)c2ccccc2)c(C)c2c1C(=O)CC(c1ccccc1)O2 (centres unmarked) | cell growth or viability, SRB | 72 h | 45.5 µM |
| COc1cc(OC)c2c(c1)OCC(c1cc(OC)c(OC)cc1OC)C2=NO (centres unmarked) | cell growth or viability, MTT | 72 h | 115 µM |
| CN(C)CCO/N=C1/C=C2CCC3C(CC[C@]4(C)/C(=C/c5ccccn5)CCC34)[C@@]2(C)CC1 (some centres unmarked) | cell growth or viability, MTT | 72 h | 13 µM |
| C#CCN(CC(=O)O[C@H]1[C@H](C)O[C@@H](O[C@H]2[C@H](N(C)C)[C@@H](O)[C@H](O[C@H]3[C@@H](CC=O)C[C@@H](C)[C@@H](O[C@H]4CC[C@H](N(C)C)[C@@H](C)O4)/C=C/C=C/C[C@@H](C)OC(=O)C[C@@H](O)[C@@H]3OC)O[C@@H]2C)C[C@@]1(C)O)C(=O)c1ccc(C(C)(C)C)cc1 | cell growth or viability, CCK-8 | 72 h | 1.84 µM |
| CN(C)CCCS(=O)(=O)NC12CCCC(C)(CCC3C1CC3(C)C)C2 (centres unmarked) | cell growth or viability, CCK-8 | 72 h | 11.8 µM |
| Oc1ccc(Br)cc1C=NNC(=S)Nc1ccccc1 | cell growth, MTT | 72 h | 6 ± 1 µM |
| COc1c(C)c(OS(=O)(=O)c2ccccc2)c(C)c(O)c1C(=O)/C=C/c1ccccc1 | cell growth or viability, SRB | 72 h | 26.7 µM |
| CN1CCCC1CCO/N=C1/C=C2CCC3C(CC[C@]4(C)/C(=C/c5ccccn5)CCC34)[C@@]2(C)CC1 (some centres unmarked) | cell growth or viability, MTT | 72 h | > 100 µM |
| CO[C@@H]1[C@@H](O[C@@H]2O[C@H](C)[C@@H](O[C@H]3C[C@@](C)(O)[C@@H](O)[C@H](C)O3)[C@H](N(C)C)[C@H]2O)[C@@H](CC=O)C[C@@H](C)[C@@H](O[C@H]2CC[C@H](N(C)C)[C@@H](C)O2)/C=C/C=C/C[C@@H](C)OC(=O)C[C@H]1OC(=O)c1ccc(C(C)(C)C)cc1 | cell growth or viability, CCK-8 | 72 h | 5.95 µM |
| CN(C)C(=S)N(C)N=Cc1ccccc1SSc1ccccc1C=NN(C)C(=S)N(C)C | cell proliferation, MTT | 72 h | 0.9 ± 0.2 µM |
| N#Cc1c(F)c(F)c2nc(SCC3CCCO3)nc(N)c2c1F (centres unmarked) | cell growth or viability, MTT | 96 h | 9.62 µM |
| CCNC(=O)Nc1ccc(S(=O)(=O)Oc2ccccc2CC)cc1 | cell growth or viability, SRB | 48 h | 3.1 µM |
